# Published values collected from several papers.
# Lines come from different studies, so protocols differ.
# Target: Cannabinoid receptor 1 (CNR1, Homo sapiens, UniProt P21554)
# Sequence of UniProt P21554 (whole entry, looked up): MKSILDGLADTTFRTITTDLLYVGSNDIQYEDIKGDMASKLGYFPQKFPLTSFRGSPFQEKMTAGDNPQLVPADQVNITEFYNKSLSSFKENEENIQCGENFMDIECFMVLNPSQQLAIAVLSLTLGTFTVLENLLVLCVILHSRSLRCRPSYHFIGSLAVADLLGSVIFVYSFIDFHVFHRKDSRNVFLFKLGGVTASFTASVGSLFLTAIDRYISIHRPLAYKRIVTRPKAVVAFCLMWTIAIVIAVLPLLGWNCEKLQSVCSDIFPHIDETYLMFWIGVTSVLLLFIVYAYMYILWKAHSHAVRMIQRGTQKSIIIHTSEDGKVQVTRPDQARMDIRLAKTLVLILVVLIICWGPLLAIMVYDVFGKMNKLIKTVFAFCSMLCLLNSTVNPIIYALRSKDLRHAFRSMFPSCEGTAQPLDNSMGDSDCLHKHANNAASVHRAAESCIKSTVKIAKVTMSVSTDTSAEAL
Compound,test,system,conditions,scale,quantity,value
O=S(=O)(NC1CCN(c2ncnc3c2nc(-c2ccccc2Cl)n3-c2ccc(Cl)cc2)CC1)c1ccc(F)cc1F,"binding, [3H]CP55940 displacement",,,baseline: Ki CB2 over Ki CB1,selectivity ratio,> 5000
COc1cc(Cl)c(C(=O)N[C@@H](CN[C@H]2CC[C@@H](N)CC2)Cc2ccc(C#N)cc2)cc1-c1ccc(CN[C@H](C)c2ccc(C)cc2)o1,"agonist response, antagonist",human cells,"10 µM, CB1 antagonist",,inhibition,16%
CCCC[C@H](NC(=O)[C@H](C)c1c(C)[nH]c2ccc(O)cc12)c1ncc(-c2cc3ccccc3nc2OC)[nH]1,,,,,Hill coefficient,5.3
CC[C@]12CCCN3CCc4c([nH]c5ccccc45)[C@]31N(Cc1cn(Cc3ccccc3)nn1)C(=O)C2,"beta-arrestin recruitment, antagonist, PathHunter chemiluminescence",,"20 µM, added: agonist at EC80",,inhibition,48%
O=c1c(NCc2ccccc2)c(Nc2ccc(Cl)cc2)c1=O,"allosteric modulator, FLIPR calcium",,"up to 10 µM, added: CP55,940",,activity,inactive
O=S(=O)(NC1CCN(c2ncnc3c2nc(-c2ccccc2Cl)n3-c2ccc(C(F)(F)F)nc2)CC1)c1ccc(F)c(F)c1,"binding, [3H]CP55940 displacement",,,baseline: Ki CB2 over Ki CB1,selectivity ratio,> 600
C[C@H](NC(=O)C(C)(C)Oc1ccc(C(F)(F)F)cn1)[C@@H](Cc1ccc(Cl)cc1)c1cccc(C#N)c1,"cAMP, antagonist, cell-based GPCR",,10 µM,baseline: control,response,> 75%
C/C(=C/CC[C@]1(C)[C@H]2CC3[C@H](C2)[C@]31C)CO,radioligand binding,,10 µM,,displacement,< 16%
O=S(=O)(NC1CCN(c2ncnc3c2nc(-c2ccccc2Cl)n3-c2ccc(F)cc2)CC1)c1ccccc1F,"binding, [3H]CP55940 displacement",,,baseline: Ki CB2 over Ki CB1,selectivity ratio,> 3000
